Experimental data gathered from unrelated publications.
Parts stem from different laboratories: compare values within a part only.

Series 1 — method: protein binding microarray; molecule type: double-stranded DNA, one strand shown; medium: in vitro; concentration: not given; relative to: not given; direction: higher = stronger binding
Target: Histone acetyltransferase KAT6A, winged helix 1, GST fusion (KAT6A, Homo sapiens, UniProt Q92794, residues 1-85)
Setting: 8-mer, flanks averaged, mean of 2 arrays, mostly near background
Construct (chain): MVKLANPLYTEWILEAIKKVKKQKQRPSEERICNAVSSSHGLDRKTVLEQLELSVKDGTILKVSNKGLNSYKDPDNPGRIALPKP
Sequence	E-score
CGGGAACA	0.25
AGCTAACT	-0.156
ACAAGGCG	0.109
ACACGATC	-0.127
CTCATCGC	0.0602

Series 2 — method: RNA Bind-n-Seq; molecule type: RNA; medium: in vitro; concentration: 200 nM; setting: whole 134-nt RNA, ends assumed; added: 150 mM KCl; relative to: input library; direction: higher = stronger binding
Target: Fragile X messenger ribonucleoprotein 1, C-terminal low-complexity region (Fmr1, Mus musculus, UniProt P35922)
Sequence	log2 enrichment
GGGAGUUCUACAGUCCGACGAUCUUGACCGGAGCGGCCGUCACUUUGGUACAAUCCUCAAUUACCUGCGGGAUGGGUCUGUGCCACUGCCGGAGAGUACGAGAGAACUGGGGGUGGAAUUCUCGGGUGUCAAGG	-1.1
GGGAGUUCUACAGUCCGACGAUCGUCCUGUGCUACACAUCGUAUGUACCGAAUCGGUUUUUUUGGUUUUUGGAAAAAAAGGAAAGUAUUAUGUUACGCCGUUCGGAUCUGCACUGGAAUUCUCGGGUGUCAAGG	-0.834
GGGAGUUCUACAGUCCGACGAUCUGGCCCUGGUGGCAUGCGGGGGGGAAGAGGUGGCCUCAUGGAUCGUGGUGGUCCCGGUGGAAUGUUCAGAGGUGGCCGUGGUGGAGACAGUGGAAUUCUCGGGUGUCAAGG	0.348

Series 3 — method: protein-binding microarray; molecule type: double-stranded DNA, one strand shown; medium: in vitro; concentration: 0.8 µM; setting: whole 60-bp probe, no competitor; direction: higher = stronger binding; all sequences stand within: … GTCTTGATTCGCTTGACGCTGCTG
Target: Centromere-binding protein 1, full length, N-terminal tag (CBF1, Saccharomyces cerevisiae, UniProt P17106, residues 1-351)
UniProt P17106, sequence (whole entry, looked up): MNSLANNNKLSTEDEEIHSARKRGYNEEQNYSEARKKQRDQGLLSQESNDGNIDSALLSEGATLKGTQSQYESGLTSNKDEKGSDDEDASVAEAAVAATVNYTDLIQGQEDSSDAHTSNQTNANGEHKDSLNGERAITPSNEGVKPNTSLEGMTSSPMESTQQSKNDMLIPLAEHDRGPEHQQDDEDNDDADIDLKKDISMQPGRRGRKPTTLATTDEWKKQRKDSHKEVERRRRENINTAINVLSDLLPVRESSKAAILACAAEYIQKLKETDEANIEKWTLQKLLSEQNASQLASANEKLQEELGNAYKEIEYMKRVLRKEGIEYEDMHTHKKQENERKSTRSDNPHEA
Sequence	fluorescence intensity [a.u.]
CTAATTTCATAATCTGGTGAGAACGTTATCACGTTC	560
CTAAAAAGGGATGAATACGTGGGAAACGGTTGCTTC	505
GAAGCATAAAGTATGCATCAGAAGGATTCTCACTAG	502
TGTACGAAGCTATGTCCTGATGTTATAGTAGTTAGG	546
GAAACGTTTTATCGTGGTGTGTTCAGTCTCCTTTAG	538
CTAATTAGATTCCCTGATGTTCACATATGGGGATTC	504

Further values, each from its own experiment
Molecule	target	assay	test system	setting	scale	endpoint	value
PhoQ, residues 284 288 289 292 302 303 AGCYAI	PhoP, residues 12 14 15 18 19 HEGLL (Escherichia coli, UniProt P23836)	Sort-seq, measured: YFP reporter	E. coli	PhoQ-PhoP variant library, added: 10 µM Mg2+	relative to: high Mg2+ state, higher = stronger signaling	fold induction	6.65

A few entries again (series 2):
Sequence	log2 enrichment
GGGAGUUCUACAGUCCGACGAUCUGGCCCUGGUGGCAUGCGGGGGGGAAGAGGUGGCCUCAUGGAUCGUGGUGGUCCCGGUGGAAUGUUCAGAGGUGGCCGUGGUGGAGACAGUGGAAUUCUCGGGUGUCAAGG	0.348
